Published values collected from several papers.
Every numbered part comes from another study and shows a few of its results, in no order. Changes are numbered by the printed parent chain.

Block 1 — method: protein-binding microarray; molecule type: double-stranded DNA, one strand shown; sample: in vitro; tested at: 940 nM top; setting: 60-bp whole probe; together with: salmon DNA 0.4 mg/ml; relative to: random background probes; direction: higher = stronger binding; all sequences stand within: GCCTAGCAC … GTCTTGATTCGCTTGACGCTGCTG
Target: Interferon regulatory factor 5, full length, phosphomimetic (IRF5, Homo sapiens, UniProt Q13568-2, residues 1-514, S451D/S453D/S456D/S462D)
Strand | fitted relative affinity
TCAAACATCTACAATGGCACTGTGCTA | -0.0804 z-score
TAAGGACTGGACTATCGGTTAGTGCTA | -0.168 z-score
TTAGGTTTCGACACTGGGGTAGTGCTA | 8.91 z-score
GACGATTTCGGGTTTCTAGACGTGCTA | 1.21 z-score
GTTTGGGTCTTGTCTGGAGTCGTGCTA | -0.105 z-score
GACGATATCAGATTCGAGACGTGCTAG | -0.206 z-score
TTAGGACTGGGGTTTCCGTTAGTGCTA | 0.429 z-score
TCAATTAGAATTTTCATACTGTGCTAG | 0.12 z-score

Block 2 — method: RNA Bind-n-Seq; molecule type: RNA; sample: in vitro; tested at: 365 nM; relative to: no-protein control; direction: higher = stronger binding
Target: RNA binding protein fox-1 homolog 2, RRM domain, GST-SBP tag (RBFOX2, Homo sapiens, UniProt O43251-10, residues 100-194)
Setting: natural RNA segment, single round, ends assumed
All sequences stand within: GGGAGUUCUACAGUCCGACGAUC … UGGAAUUCUCGGGUGCCAA
Residues (chain): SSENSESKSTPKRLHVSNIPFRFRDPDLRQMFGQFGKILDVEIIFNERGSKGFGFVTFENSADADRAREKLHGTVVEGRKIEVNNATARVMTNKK
Strand | RBNS enrichment (R)
CCCCGAGGCCCAAAGAUAAACUGCUACAAUGCUCCAGAACAAUCUUUUCUCUCCUCCCCAGAGGCCCCAUGGGAUGCCGCGUGCUGUUGGGUUUGGGCUAAGAUCUAAGA | 0.491
GAAAACUUGAGACUCCCAAGUUCUGGGCCAGCCCAUUGCUCUGGGCUGUUUUAAAGCCCAUUUCACGAGGAACAAAGAUUUACUUCCUGUCCUGCCAUUCGUGUGCUUCC | 0.311
UCAGCAAGCCAUCAAGCCUCACAUCUCUACCAUCAGAGAUAGAGCUUGGCCAUUUAUCUAAGGAAGAUGAGCCAAAAUUAUGACAUCUAAAAUAAUCGUCAGUCUUAAGA | 0.28
GAACGGACAGCAAAGGUGCAGGCGGUCAGGCUCCUCGCUUGGAAGACCACGGUUCUGAGCAAGUCUGCACAACAGCACCAAAAGGAGACCCCGAGGCCCAAAGAUAAACU | 0.497
GGUGGGCACUGAAUGUGGUUUUUAGAUUUUUGUAUUGUGGACUGUCUUUGCCUCAUAUUAAAAACUCAUCCCAUGGCCGCUAGGCCACCGUGCUCCAAGGGAGCUCUCAG | 0.472
UCAGUAUCAGAAGUCAAAGCGAAACAAUACCGUCUGGCACUUAACUCUCAGGUCCCCCACUUAGUCAGGCCUGAGCUAAUUUAUUUGAGCGCAGAGUGUAAAAUUUUAAU | 0.369
UAAAUGUGGUCUUUGCCAACUAAAUUUAAGAUGCAGCAUUUUAGAAAUUUACAUAUCAAUGUUUCUACAGUAUUGUUUGCUAAUUUUUAAAUAAAGUCAUGAUCAGUGUG | 0.879
UCUUUGGUAAUGAAACAAUAACACUCAAUGAAGGAUGUAUUAAAAUUUUUGACUUAAUUUUGAAAUCGUAUAUAUGAGCUAUACUUUAACAUUAUGAGAGAAAAGCAUAA | 0.434

Block 3 — target: CREB3L3, bZIP domain (human); method: DHFR protein complementation; sample: yeast; relative to: wild-type JUN-FOS pair; direction: higher = stronger binding
Setting: single substitutions, most at no-binding floor
Starting sequence: JUN, bZIP domain (human); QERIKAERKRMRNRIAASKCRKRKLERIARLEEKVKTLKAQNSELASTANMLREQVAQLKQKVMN; partner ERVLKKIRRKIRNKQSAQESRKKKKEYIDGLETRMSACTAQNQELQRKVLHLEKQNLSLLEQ
Variant | binding fitness [natural log]
I28Q | -1.38
E44A | -1.37
T37M | -0.778
V35K | -1.48
T37Q | -1.1
K39R | -1.35
L38T | -1.49
L31R | -1.52

Further values, each from its own experiment
Compound | system | conditions | endpoint | result
Cc1ccc(C(C)C)c(OCC(=O)NC2=NCC(=O)N2c2ccccc2)c1 | mouse, microsomes or S9 | 2 µM, 0.5 h | remaining compound | < 1%

Repeated from above (block 1):
Strand | fitted relative affinity
TTAGGACTGGGGTTTCCGTTAGTGCTA | 0.429 z-score
